Measurements of several laboratories.
Numbered parts are unrelated; each lists some results of a single study. Substitutions count along the parent as printed.

Set 1 — target: CEP164, C-terminal peptide (human); technique: DHFR complementation, deep sequencing; sample: yeast; relative to: wild type; direction: higher = weaker binding
Setting: single substitutions, model-inferred values
Starting sequence: PDZK1, PDZ domain 2 (human); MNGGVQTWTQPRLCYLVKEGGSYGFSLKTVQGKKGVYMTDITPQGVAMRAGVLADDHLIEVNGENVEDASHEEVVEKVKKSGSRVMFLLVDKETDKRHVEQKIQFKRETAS; partner HNRVKVYRF
| Variant | binding free energy change [kJ/mol] |
| --- | --- |
| Y15H | 0.0407 |
| I59Q | 3.51 |
| E108K | -1.49 |
| V17M | 0.469 |
| P11Q | 0.897 |
| K33C | 0.184 |
| V75W | 11.8 |
| R107K | -0.918 |
| L88Q | 0.456 |
| Q10E | -0.169 |
| T109Q | -0.513 |

Set 2 — technique: Sort-seq; measured: YFP reporter; sample: E. coli; setting: PhoQ-PhoP variant library; with: 10 µM Mg2+; relative to: high Mg2+ state; direction: higher = stronger signaling
Substance: PhoQ, residues 284 288 289 292 302 303 TAVSDG
| target | fold induction |
| --- | --- |
| PhoP, residues 12 14 15 18 19 HHYTI (Escherichia coli, UniProt P23836) | 0.894 |
| PhoP, residues 12 14 15 18 19 SFCSL (Escherichia coli, UniProt P23836) | 7 |
| PhoP, residues 12 14 15 18 19 AYFRS (Escherichia coli, UniProt P23836) | 7.46 |

Set 3 — target: CCNE1, cyclin fold, Cln2 fusion (human); technique: yeast growth competition, sequencing; sample: yeast; setting: strong parent motif; relative to: not given; direction: higher = stronger binding
Starting sequence: RBL2 docking peptide (human); STTRRRLFVENDS
| Variant | normalised enrichment score |
| --- | --- |
| R6A | 2.05 |
| S13N | 4.85 |
| R5W | 0.44 |
| R6V | 4.31 |
| D12V | 4.12 |
| R6E | 0.547 |
| T3M | 2.47 |
| R4I | 4.86 |
| S1K | 5.73 |
| L7N | -1.14 |
| R5N | 0.381 |
| V9S | 5.25 |
| T2Q | 6.26 |
| R5F | 0.376 |
| S1V | 5.55 |
| F8S | -0.373 |
| T3N | 0.127 |
| F8H | -0.379 |
| N11I | 3.77 |
| N11K | 5.51 |
| R5K F8L | -0.128 |
| S13L | 5.81 |
| N11R | 4.37 |

Set 4 — technique: RNA Bind-n-Seq; form: RNA; sample: in vitro; concentration: not given; relative to: input RNA pool; direction: higher = stronger binding
Target: RING finger protein unkempt homolog, zinc fingers 1-6, GST-SBP tag (UNK, Homo sapiens, UniProt Q9C0B0, residues 30-357)
Setting: RNA with constant flanks, human and mouse sites, ends assumed
Shared flanks, not repeated: GGGAGUUCUACAGUCCGACGAUC … CAACAGAGGAUUGAGCAUCA
Target sequence (chain): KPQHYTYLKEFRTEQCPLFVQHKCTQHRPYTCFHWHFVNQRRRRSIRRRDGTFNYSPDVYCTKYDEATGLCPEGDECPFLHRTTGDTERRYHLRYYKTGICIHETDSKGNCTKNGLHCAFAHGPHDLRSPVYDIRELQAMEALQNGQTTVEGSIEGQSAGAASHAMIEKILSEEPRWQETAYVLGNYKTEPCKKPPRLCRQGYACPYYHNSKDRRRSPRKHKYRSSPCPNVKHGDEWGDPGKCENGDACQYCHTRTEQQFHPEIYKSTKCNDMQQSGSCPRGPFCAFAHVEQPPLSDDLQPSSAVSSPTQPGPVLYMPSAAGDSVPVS
| Sequence | bound/input enrichment |
| --- | --- |
| GCAUAUGGUUAUCGAGGAAAGGACUGUAGAGCUAAUGUUUACCUUCUUCCGACCGGGAAAAUAGUUUAUUUCAUUGCAUCAGUAGUAGUACUAUUUAAUUAUGAGGAGAGAACUCAGCGA | 3.35 ratio |
| GAAUUUAAUUGGUGAUGCCUUUGUGUCUAGAAGGCACACAUCCCAGAGAGCUCUGGUGUGACGUGAUGGGGACUUGUGGCUAGAGAAGAUCUUCAAUGGCCUUAAGCUCUGGGUCUUGCU | 0.277 ratio |
| CUAUCACUAUGGCAAAAACAUAAAUAUUAUCUCAUUUCAGUGUGUGGAGUUGUGGUUGUAGUGUUUGCCUGGUACAUCACCCAUGAUGUCAAUUAAAAAAAGUUUUGAUCUUUUAAUGUA | 0.292 ratio |
| GACUCCAUCUUGAGUUGGGGGACUAUUUGGCUUGGUGGGCAAGGGAGCUGCUCGUUGCCAAGGGGCCUCGCUCCACCCCCCACCACCCCACCCCCAGACAUGCUGCUGCUCAAGAAACAG | 0.33 ratio |
| AGUUGUGUAGCCCACAAUGCCCUGGAGUGUGCACGAGCCAUCUACGCCUACGCCCUGCAGGUGUUCCCCAGCAAGAAGAGUGUGUGGCUGCGCGCCGCGUACUUCGAGAAGAACCAUGGC | 0.0985 ratio |
| UUUGCAAGAAAAAAGACCCGUGUCCUGUCCUUUGUUUGUAACAGUUGCAACACUUGAUAUUUUAGAGGGGUCUUUUACUCUCUUCAAACGUCCUUGAUGUGGUCUGUAAAUUCUGUUUCA | 0.232 ratio |
| AAUGGACAAGAAGUCAAAAUCGAUCAGAGAAAUGUUAAAAAAGAGUUCACUAGCCAUGCUUUAGAUUCUCAUAUCUUAGAUUAUUAUGAAAAUCCAGCCAUCAAAGAGGAUGUAUCAACA | 1.05 ratio |
| GAACUGCUACAACUAACAAACAUUUGUUUCCAAGCCUGUCAUUAAGAGUCUGCAUCAAGAGAUUUGUCCUCCUUGGGGGACCACUGGAUCAUUCCAGAUUUCUUGUGAUUUUUCUAUUGU | 0.0822 ratio |
| CCACCAGAUUCCAGCCAACAUGACUCUUGCAGCCUAUAAGGAGAAGAUGAAGGAACUCCCACUAGUGUCUCUGUUCUGCUCUUGCUUCUUGUCUGAUCCCCUGAAUAAAUCAUCCUACAA | 1.08 ratio |
| CUGGUUUCCUGGAUUGGAUUGAUCAGUUUGAUUUGUUCUGUAUUUGGCCAAACAGAUAAAAAUAGAUGUUUAAAAGCAAAUGCCAAAUCUUGCGGAGAAUGUAUACAAGCAGGGCCAAAU | 0.342 ratio |
| UGUUUCCCAAUGUUAUGCUCGCUUGCCUAGCUUUAUGAAUUGCUUUGGUUUCUGUUUUUGCAUACUCUCAAUUUCUUUGAACCCCACCCCCACCCCACCCCCACUUACAUGCAUGCGAUC | 0.546 ratio |

Set 5 — technique: DHFR PCA, deep sequencing; sample: yeast; with: (+)-ABA 58 µM; relative to: wild-type fitted maximum; direction: higher = stronger binding
Target: ABI1, truncated, D143A, DHFR fusion (Arabidopsis thaliana)
Setting: methotrexate growth selection, single substitutions
Starting sequence: PYL1, truncated, DHFR fusion (Arabidopsis thaliana); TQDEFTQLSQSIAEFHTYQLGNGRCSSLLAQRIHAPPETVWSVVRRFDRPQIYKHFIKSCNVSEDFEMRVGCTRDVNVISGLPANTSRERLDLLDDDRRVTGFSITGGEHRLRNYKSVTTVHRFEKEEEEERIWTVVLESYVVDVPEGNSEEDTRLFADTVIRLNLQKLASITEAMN; partner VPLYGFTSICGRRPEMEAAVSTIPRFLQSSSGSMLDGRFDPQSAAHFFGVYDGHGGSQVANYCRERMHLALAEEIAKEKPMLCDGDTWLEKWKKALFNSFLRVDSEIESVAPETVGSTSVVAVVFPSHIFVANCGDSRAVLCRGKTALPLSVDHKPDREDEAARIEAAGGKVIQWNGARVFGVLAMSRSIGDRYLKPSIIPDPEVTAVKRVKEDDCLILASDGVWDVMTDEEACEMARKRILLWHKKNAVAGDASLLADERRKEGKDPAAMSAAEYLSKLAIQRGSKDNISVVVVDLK
| Variant | relative binding score |
| --- | --- |
| A158Q | 5.12% |
| M176G | 85.8% |
| V118W | 15% |
| E174Y | 52.2% |
| L138E | -4.65% |
| I133W | 84% |
| I79D | 22% |
| Q51L | 23.2% |
| R98G | 58.4% |
| T119E | -6.83% |
| V62S | 41.8% |
| L138G | -2.68% |
| L93R | 88.7% |

For quick reference, copied from above (set 3):
| Variant | normalised enrichment score |
| --- | --- |
| L7N | -1.14 |
| R5N | 0.381 |
| V9S | 5.25 |
| T2Q | 6.26 |
